{"data": "Measured values pooled from the literature", "note": "Lines come from different studies, so protocols differ.", "chain of UniProt P07333 (whole entry, looked up)": "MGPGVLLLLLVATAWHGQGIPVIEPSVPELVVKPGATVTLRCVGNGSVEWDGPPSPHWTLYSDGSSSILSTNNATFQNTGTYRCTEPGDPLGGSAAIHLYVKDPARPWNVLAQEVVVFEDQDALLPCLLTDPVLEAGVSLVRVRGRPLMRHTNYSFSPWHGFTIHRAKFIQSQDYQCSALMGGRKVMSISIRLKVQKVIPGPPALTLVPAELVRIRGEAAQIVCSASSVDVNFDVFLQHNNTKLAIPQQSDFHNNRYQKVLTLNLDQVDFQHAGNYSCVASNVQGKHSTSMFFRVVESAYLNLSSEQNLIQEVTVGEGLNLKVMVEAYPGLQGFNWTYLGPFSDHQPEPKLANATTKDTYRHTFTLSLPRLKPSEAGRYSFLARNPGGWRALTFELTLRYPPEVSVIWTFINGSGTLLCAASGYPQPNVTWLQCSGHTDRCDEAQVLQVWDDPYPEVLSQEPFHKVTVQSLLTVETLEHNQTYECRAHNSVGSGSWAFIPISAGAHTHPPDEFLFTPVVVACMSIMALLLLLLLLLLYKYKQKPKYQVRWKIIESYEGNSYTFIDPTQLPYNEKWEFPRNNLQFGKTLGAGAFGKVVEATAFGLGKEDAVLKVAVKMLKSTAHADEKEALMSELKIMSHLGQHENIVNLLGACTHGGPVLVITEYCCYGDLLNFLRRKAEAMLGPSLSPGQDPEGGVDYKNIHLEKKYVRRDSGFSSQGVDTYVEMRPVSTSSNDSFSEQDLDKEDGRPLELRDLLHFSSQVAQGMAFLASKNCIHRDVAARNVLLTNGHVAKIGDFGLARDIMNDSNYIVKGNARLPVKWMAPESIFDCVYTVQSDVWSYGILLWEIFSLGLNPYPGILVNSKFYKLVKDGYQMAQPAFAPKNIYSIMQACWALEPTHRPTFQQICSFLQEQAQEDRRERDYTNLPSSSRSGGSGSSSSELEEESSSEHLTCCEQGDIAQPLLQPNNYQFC", "chain of UniProt P20309 (whole entry, looked up)": "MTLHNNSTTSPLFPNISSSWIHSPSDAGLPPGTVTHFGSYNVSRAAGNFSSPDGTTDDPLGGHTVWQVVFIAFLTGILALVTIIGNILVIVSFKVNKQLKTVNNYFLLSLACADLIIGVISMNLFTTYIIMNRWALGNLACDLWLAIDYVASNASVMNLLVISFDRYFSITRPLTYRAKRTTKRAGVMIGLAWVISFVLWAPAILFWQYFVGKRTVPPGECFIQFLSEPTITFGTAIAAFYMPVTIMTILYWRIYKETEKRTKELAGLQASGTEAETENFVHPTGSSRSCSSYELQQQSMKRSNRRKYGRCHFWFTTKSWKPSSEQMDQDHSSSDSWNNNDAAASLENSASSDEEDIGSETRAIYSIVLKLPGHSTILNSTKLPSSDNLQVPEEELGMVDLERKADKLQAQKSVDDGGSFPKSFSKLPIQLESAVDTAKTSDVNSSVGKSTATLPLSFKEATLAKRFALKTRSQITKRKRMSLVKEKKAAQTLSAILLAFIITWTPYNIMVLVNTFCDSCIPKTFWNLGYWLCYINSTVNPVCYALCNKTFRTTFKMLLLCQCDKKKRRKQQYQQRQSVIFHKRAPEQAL", "chain of UniProt P37288 (whole entry, looked up)": "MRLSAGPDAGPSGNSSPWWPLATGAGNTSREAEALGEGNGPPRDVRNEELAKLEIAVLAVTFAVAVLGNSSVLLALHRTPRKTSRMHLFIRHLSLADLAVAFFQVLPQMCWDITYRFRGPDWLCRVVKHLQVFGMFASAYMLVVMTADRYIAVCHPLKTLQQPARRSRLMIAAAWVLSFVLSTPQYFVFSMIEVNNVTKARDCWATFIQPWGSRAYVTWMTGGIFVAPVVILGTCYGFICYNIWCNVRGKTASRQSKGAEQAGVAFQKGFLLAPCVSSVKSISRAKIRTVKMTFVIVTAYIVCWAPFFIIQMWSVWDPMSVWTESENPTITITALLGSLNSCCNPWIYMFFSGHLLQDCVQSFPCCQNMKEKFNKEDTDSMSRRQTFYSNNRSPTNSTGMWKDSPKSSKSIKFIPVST", "chain of UniProt Q00536 (whole entry, looked up)": "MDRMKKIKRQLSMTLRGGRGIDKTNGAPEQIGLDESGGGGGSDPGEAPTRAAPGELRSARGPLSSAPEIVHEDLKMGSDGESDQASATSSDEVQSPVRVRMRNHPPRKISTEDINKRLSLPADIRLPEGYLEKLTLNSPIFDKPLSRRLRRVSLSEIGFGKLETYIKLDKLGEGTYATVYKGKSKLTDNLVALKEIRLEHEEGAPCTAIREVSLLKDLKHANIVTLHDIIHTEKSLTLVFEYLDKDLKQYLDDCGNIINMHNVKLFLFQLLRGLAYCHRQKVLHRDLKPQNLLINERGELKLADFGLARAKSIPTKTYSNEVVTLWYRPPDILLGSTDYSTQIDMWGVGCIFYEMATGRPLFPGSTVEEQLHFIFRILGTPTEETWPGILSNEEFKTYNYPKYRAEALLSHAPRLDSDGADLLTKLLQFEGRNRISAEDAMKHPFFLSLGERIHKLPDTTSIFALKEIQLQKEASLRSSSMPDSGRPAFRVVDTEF", "chain of UniProt Q9Y616 (whole entry, looked up)": "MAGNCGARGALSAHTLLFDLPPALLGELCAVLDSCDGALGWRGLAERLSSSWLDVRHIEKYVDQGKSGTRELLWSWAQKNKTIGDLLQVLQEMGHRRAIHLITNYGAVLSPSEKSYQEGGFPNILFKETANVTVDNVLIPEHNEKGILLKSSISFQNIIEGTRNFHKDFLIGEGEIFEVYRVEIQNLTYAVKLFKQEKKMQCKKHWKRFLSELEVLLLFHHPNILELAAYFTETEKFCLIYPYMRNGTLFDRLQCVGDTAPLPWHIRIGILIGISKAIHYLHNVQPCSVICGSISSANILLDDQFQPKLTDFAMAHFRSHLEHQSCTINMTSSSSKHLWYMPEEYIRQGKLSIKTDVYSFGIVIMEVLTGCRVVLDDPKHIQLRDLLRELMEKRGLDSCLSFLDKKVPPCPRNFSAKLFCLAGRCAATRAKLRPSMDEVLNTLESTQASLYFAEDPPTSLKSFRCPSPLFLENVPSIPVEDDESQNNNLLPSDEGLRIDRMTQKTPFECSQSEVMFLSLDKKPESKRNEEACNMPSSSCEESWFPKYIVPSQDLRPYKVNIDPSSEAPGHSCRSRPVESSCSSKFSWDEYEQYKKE", "chain of UniProt P23975 (whole entry, looked up)": "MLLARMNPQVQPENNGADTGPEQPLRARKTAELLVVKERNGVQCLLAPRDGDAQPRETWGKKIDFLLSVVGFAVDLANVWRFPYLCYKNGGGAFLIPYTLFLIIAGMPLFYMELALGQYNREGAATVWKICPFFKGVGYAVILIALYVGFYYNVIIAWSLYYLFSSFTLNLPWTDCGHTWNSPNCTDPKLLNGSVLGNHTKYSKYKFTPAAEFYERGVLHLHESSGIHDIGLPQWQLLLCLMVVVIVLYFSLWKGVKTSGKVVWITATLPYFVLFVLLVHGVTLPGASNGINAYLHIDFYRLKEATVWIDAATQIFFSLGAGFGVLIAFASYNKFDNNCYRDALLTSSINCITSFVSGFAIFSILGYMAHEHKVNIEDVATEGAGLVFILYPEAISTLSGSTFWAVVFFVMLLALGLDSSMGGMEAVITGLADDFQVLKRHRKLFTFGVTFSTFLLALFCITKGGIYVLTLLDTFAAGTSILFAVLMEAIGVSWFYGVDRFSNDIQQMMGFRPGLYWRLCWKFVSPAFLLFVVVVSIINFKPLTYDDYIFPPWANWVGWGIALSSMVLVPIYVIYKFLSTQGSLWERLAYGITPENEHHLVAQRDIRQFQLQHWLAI", "chain of UniProt P41595 (whole entry, looked up)": "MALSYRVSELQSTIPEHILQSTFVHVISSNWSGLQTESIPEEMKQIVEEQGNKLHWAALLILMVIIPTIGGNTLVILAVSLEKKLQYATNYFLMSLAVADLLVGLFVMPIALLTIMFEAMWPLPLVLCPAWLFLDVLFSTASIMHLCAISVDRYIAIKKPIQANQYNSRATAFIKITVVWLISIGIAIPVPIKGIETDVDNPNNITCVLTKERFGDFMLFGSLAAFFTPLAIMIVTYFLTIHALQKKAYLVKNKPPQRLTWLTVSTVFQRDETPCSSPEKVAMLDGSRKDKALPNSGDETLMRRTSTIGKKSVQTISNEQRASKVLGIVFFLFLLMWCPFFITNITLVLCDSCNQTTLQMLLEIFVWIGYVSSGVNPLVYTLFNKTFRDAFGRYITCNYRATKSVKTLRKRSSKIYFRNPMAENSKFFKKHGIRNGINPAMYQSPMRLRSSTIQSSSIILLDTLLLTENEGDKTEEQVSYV", "chain of UniProt P41145 (whole entry, looked up)": "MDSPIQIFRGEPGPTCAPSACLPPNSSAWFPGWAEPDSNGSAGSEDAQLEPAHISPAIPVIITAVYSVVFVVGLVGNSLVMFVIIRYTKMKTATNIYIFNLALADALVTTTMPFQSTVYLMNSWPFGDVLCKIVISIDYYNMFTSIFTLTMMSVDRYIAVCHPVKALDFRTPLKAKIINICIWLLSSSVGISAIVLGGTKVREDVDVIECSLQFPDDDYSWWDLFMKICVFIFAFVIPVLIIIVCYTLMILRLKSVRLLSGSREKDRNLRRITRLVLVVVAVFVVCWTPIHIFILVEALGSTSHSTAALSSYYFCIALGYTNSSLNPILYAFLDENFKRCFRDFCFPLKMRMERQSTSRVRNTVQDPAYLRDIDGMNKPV"}
{"Compound": "COc1cc(CCNC(C)c2ccccc2O)c(OC)cc1C#N (single isomer, unassigned; (-))", "target": "HTR2B (Homo sapiens, UniProt P41595)", "test": "G protein activation, agonist, BRET", "quantity": "Emax", "value": "46%"}
{"Compound": "Nc1ncc(-c2nc(N3CCOCC3)nc(N3CCOCC3)n2)c(C(F)F)n1", "target": "Macrophage colony-stimulating factor 1 receptor, autoinhibited (CSF1R, Homo sapiens, UniProt P07333)", "test": "cell-free assay, competition with immobilised ligand", "setting": "10 µM", "quantity": "remaining binding", "value": "2.1%"}
{"Compound": "CN1CC[C@]2(C)c3cc(OC(=O)Nc4ccccc4)ccc3N(C)[C@H]12", "target": "CHRM3 (Homo sapiens, UniProt P20309)", "test": "ligand displacement, radioligand", "setting": "10 µM", "quantity": "inhibition", "value": "1.5%"}
{"Compound": "C#Cc1n[nH]c2c(-c3cn(C(C)c4ccccn4)c(=O)[nH]c3=O)cc(F)cc12 (stereo not shown)", "target": "DDR2 (Homo sapiens, UniProt Q16832)", "test": "enzyme activity, inhibitor", "setting": "1 µM", "quantity": "inhibition", "value": "-4%"}
{"Compound": "[2H]c1c([2H])c([C@]2([2H])CCCN2C(=O)C(C)(C)Oc2ccc3cn[nH]c3c2)c([2H])c([2H])c1C([2H])([2H])[2H]", "target": "CDK16 (Homo sapiens, UniProt Q00536)", "test": "binding, competition with immobilised ligand", "setting": "1 µM", "quantity": "remaining binding", "value": "87%"}
{"Compound": "c1cncc([C@@H]2CCCN2)c1", "target": "SLC6A2 (Homo sapiens, UniProt P23975)", "test": "ligand displacement", "setting": "50 µM", "quantity": "inhibition", "value": "15.6%"}
{"Compound": "Brc1ccc2c(c1)C(c1ccccn1)=NCc1c(-c3cnco3)ncn1-2", "target": "OPRK1 (Homo sapiens, UniProt P41145)", "test": "ligand displacement, radioligand", "setting": "10 µM", "quantity": "inhibition", "value": "61.6%"}
{"Compound": "COc1ncccc1-c1cnn2ccc(N3CCN(C(=O)OC(C)C)CC3)nc12", "target": "IRAK3 (Homo sapiens, UniProt Q9Y616)", "test": "binding, competition with immobilised ligand", "setting": "1 µM", "quantity": "remaining binding", "value": "88%"}
{"Compound": "Cc1nn(C)cc1-c1nc2c(N3CCN(Cc4ccc(Cl)cc4)CC3)c(Cl)cnc2[nH]1", "target": "PAK3 (Homo sapiens, UniProt O75914)", "test": "binding, competition with immobilised ligand", "setting": "1 µM", "quantity": "remaining binding", "value": "32%"}
{"Compound": "CC(C)CC(=O)OC[C@H]1O[C@@](C#N)(c2ccc3c(N)ncnn23)[C@H](O)[C@@H]1O", "target": "AVPR1A (Homo sapiens, UniProt P37288)", "test": "cell-free assay", "setting": "20 µM", "quantity": "inhibition", "value": "-1%"}
{"note": "A few entries again:"}
{"Compound": "CC(C)CC(=O)OC[C@H]1O[C@@](C#N)(c2ccc3c(N)ncnn23)[C@H](O)[C@@H]1O", "target": "AVPR1A (Homo sapiens, UniProt P37288)", "test": "cell-free assay", "setting": "20 µM", "quantity": "inhibition", "value": "-1%"}
